Measured values collected from several papers.
Parts stem from different laboratories: compare values within a part only.

Study 1
Target: RNA binding protein fox-1 homolog 2, RRM domain, GST-SBP tag (RBFOX2, Homo sapiens, UniProt O43251-10, residues 100-194)
Technique: RNA Bind-n-Seq
Form: RNA
Medium: in vitro
Tested at: 365 nM
Notes: natural RNA segment, single round, ends assumed
Baseline: no-protein control
Reading: higher = stronger binding
Constant ends, left off below: GGGAGUUCUACAGUCCGACGAUC … UGGAAUUCUCGGGUGCCAA
Residues (chain): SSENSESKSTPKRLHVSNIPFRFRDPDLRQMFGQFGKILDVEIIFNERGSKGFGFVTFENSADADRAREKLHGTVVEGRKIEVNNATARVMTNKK
Oligonucleotide	RBNS enrichment (R)
CUUUAAGUCAGUUGGUUUUUAUUAGCUGCUUGGUAUGCAGUAACUUGGGUGGAGGCAAAACACUAAUAAAAGGGCUAAAAAGGAAAAUGAUGCUUUUCUUCUAUAUUCUU	0.612
CAGGCACUUUUCAUGCUGUUUAAAAGACUGUGUAUCAAAUUGUGCACUUUAAGUAUGUGCAGUUUGUUGUAUGUCAAUUAUACCUCAAUAAAUCUGUAAUAAAAAACUAA	0.276
AACAUUGUUUCACUUGGCGGCAUGUUUUUGAAACCUGCUUUAUAGUAACUGGGUGAUUGCCAUUGUGGUAGAGCUUCCACUGCUGUUUAUAAUCUGAGAGAGUUAAUCUC	0.505
CCGUUGAAGGACUUGCAUCCCCAUUGCGGGCAGUGCUGGACGUGUCCCGGAGACCCACCGGGAGGGCGCCGCCAUGCCUUGUACCCCCACCGUGCAGGUUGUGGCCGGUU	0.766
CCACCAUUCAAGAGAUGACUGAGAAGGAGAUGGUAAGUUCAAGAAGACUGAUUGCACCUGGGACCCAGGCCCUUUCUUUGGGAUCCAGUCCCAGCCUUCAUCCAUGUGAU	0.536
AUAGUCUUCUUGUAAGGAGCAUUGGGCUGUCAUCUUUGAGCUGCUUAUCAAAAUACAGAUCAUUAUUGCAUAUAUGCAAAUUCUGUUUUAUUUUAUCCCUAAUAACAGAA	0.679
CUGGGAGGGGGCCUUCCUCCAGGGAAUGUAACUCUCCCAGGCCCCAGAAUAGCUCCUGGAUCCAAGCCCGGGGCCCGGCCUGGGACACGGCGCUGAGGGUCGGCAGGCUG	0.268
ACUUUAGAGCUAGGAUGAGGGCACCUCUCCUCCUCCAUGGAUCACCAAGGGGGCUCUUGCAUUGAGCAAUAUUGCCUUAUUUACUUUAGGGCACAAGCCAAGUCUUCAUG	0.271

Study 2
Target: Interferon regulatory factor 5, full length, phosphomimetic (IRF5, Homo sapiens, UniProt Q13568-2, residues 1-514, K96S/S451D/S453D/S456D/S462D)
Technique: protein-binding microarray
Form: double-stranded DNA, one strand shown
Medium: in vitro
Tested at: 250 nM
Notes: 60-bp whole probe
Added: salmon DNA 0.4 mg/ml
Baseline: random background probes
Reading: higher = stronger binding
Constant ends, left off below: GCCTAGCAC … GTCTTGATTCGCTTGACGCTGCTG
Oligonucleotide	log fluorescence [z-score]
TTAGGTAACGGGACTGGGTTAGTGCTA	-0.37
TTAGGACTGGAGACTGGGTTAGTGCTA	-0.591
TCAGTCACCCATCTCAAACTGTGCTAG	0.156
TCAGGACTGGGGTTTCGGTTAGTGCTA	6.28
TCACGCTTCATCTCCCAGACTGTGCTA	0.0147
TTCTGAGCCTGGGTGGATGGGTGCTAG	-0.703
GACGATTCCCTTTTCCTGACGTGCTAG	0.124
TTAGGTTTCGGAATCGGTTAGTGCTAG	7.49
TTAGATTTCAGTCTCGATTTGTGCTAG	2.94
GTGTGTTTGTGTGTGTATGTGTGCTAG	0.0897
TCATTTTTTTTTTTCTGACTGTGCTAG	1.12
TATTCCCCATCACTCACTCTGTGCTAG	1.06
GATGGTTTCGGTTTCGGGACGTGCTAG	10.8
CCCAATTCTCTTTTCACTTTGTGCTAG	1.32
TTAGTACTGGGGTTTCGGTTAGTGCTA	6.87
GACGGCCTCGGTCTCGGGACGTGCTAG	-0.59
TCACATGTAAATAATCAGACTGTGCTA	0.422
AAATCATTTTCTCTGTTCTAGTGCTAG	1.77
TTAGCTTTCAGTTTCGATTAGTGCTAG	11.2

Study 3
Target: UBE2I UBC core domain (UniProt P63279)
Technique: yeast two-hybrid
Medium: yeast
Notes: mostly zero background
Baseline: not given
Reading: higher = stronger interaction
B1: TRIM34 RING domain (UniProt Q9BYJ4); chain ILLNVQEEVTCPICLELLTEPLSLDCGHSLCRACITVSNKEAVTSMGGKSSCPVCGISYSFEHLQA
B2: SHPRH RING domain (UniProt Q149N8); chain KTSGGVNPEPCPICARQLGKQWAVLTCGHCFCNECISIIIEQYSVGSHRSSIKCAICRQTTSHKEISY
B3: CBLL1 RING domain (UniProt Q75N03); chain GEKDDTPVHFCDKCGLPIKIYGRMIPCKHVFCYDCAILHEKKGDKMCPGCSDPVQRIEQCT
Sequence	lacZ reporter activity
B1 (TRIM34 RING domain)	0
MEEMEEELKCPVCGSFYREPIILPCSHNLCQACARNILVQTPESESPQSHRAAGSGVSDY (TRIM9 RING domain (UniProt Q9C026))	0
SNNDLASLFECPVCFDYVLPPILQCQSGHLVCSNCRPKLTCCPTCRGPLGSIRNLA (SIAH1 RING domain (UniProt Q8IUQ4))	0
GSEEEEIPFRCFICRQAFQNPVVTKCRHYFCESCALEHFRATPRCYICDQPTGGIFNPA (RNF113B RING domain (UniProt Q8IZP6))	0
B2 (SHPRH RING domain)	0
B3 (CBLL1 RING domain)	0

Study 4
Target: Histone acetyltransferase KAT6A, both winged helices, GST fusion (KAT6A, Homo sapiens, UniProt Q92794, residues 1-181)
Technique: protein binding microarray
Form: double-stranded DNA, one strand shown
Medium: in vitro
Tested at: not given
Notes: 8-mer, flanks averaged, mean of 2 arrays, mostly near background
Baseline: not given
Reading: higher = stronger binding
Residues (chain): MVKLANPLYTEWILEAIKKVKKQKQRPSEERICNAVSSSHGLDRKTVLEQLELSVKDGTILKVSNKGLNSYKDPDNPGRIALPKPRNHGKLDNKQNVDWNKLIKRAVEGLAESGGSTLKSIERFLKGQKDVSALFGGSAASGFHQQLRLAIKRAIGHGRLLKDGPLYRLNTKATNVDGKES
Oligonucleotide	E-score
AAAGGCCG	0.271
ACGGCTGA	0.19
GTTCGGCA	0.117
ACTAGACT	-0.0298
ACCCCCCC	-0.107
AAAAAATT	-0.0511
AAAAAGCG	0.195
CCGGTCAC	0.123
CTGCACAG	-0.0803
GGCCCAAA	-0.128
CATGTCTC	-0.0653
ACGAACTA	-0.206
AAGAATAA	-0.0916
TGCCATAA	-0.0855
AAGCTCGG	0.0223
ACTCCAGA	-0.194
GTATCGAC	0.0871
GACAGGGC	0.0351
GATTCCCC	0.0854
CACGGTCA	0.136
CGAACCTC	-0.0909
GGCATGGA	-0.127

Excerpt of the above (study 4):
Oligonucleotide	E-score
ACTAGACT	-0.0298
AAGAATAA	-0.0916
CGAACCTC	-0.0909
ACGAACTA	-0.206
CTGCACAG	-0.0803
